Measurements collected from several papers.
Parts stem from different laboratories: compare values within a part only.

Series 1 — technique: protein binding microarray; molecule type: double-stranded DNA, one strand shown; sample: in vitro; tested at: not given; relative to: not given; direction: higher = stronger binding
Target: Histone acetyltransferase KAT6A, winged helix 1, GST fusion (KAT6A, Homo sapiens, UniProt Q92794, residues 1-85)
Notes: 8-mer, flanks averaged, mean of 2 arrays, mostly near background
Target sequence (chain): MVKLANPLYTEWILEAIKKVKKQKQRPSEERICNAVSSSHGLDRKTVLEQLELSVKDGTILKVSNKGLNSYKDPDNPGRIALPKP
Strand	E-score
ACAGTCGT	0.0713
ACATTTTC	-0.0298
AGGAAACG	-0.155
CCTTCCAA	-0.187
ACGGCCCT	0.26
CCGTCACC	0.213
AGGTACAG	-0.11
CGTTCGTA	0.107
ATCACCGA	-0.0983
GCCCTAGA	-0.0591
ACTAAGCG	0.201
ATAGTCGA	-0.184
AAGGACAA	-0.153
ACCTTCGA	-0.136
CTCACATC	-0.134
ACCAGTTC	-0.00319
CCGGCGAA	0.252
CCTTAGGA	-0.162
GCATGTAC	-0.0385
CCACAAGG	-0.14
GTCCTTTA	-0.117
GGGAATGA	0.0395
ACCATGGG	-0.0162
AGTGCTAC	-0.225

Series 2 — technique: RNA Bind-n-Seq; molecule type: RNA; sample: in vitro; tested at: not given; relative to: input RNA pool; direction: higher = stronger binding
Target: RING finger protein unkempt homolog, zinc fingers 1-6, GST-SBP tag (UNK, Homo sapiens, UniProt Q9C0B0, residues 30-357)
UniProt Q9C0B0, sequence (30-357, looked up): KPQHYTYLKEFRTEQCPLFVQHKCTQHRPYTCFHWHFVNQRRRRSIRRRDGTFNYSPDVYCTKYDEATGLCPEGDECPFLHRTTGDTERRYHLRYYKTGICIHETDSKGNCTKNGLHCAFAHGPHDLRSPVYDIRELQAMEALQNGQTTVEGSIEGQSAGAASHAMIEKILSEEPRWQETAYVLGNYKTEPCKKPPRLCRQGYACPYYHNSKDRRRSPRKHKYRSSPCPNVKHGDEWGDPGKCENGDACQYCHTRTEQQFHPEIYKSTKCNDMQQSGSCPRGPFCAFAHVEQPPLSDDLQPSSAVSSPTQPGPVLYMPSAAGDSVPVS
Notes: RNA with constant flanks, human and mouse sites, ends assumed
All sequences stand within: GGGAGUUCUACAGUCCGACGAUC … CAACAGAGGAUUGAGCAUCA
Strand	bound/input enrichment [ratio]
GACCACAUUCAGUUUGUGCAGAAAAAGCCACCCCGUGAGAAUGGCCAUAAGCAGAUAAGUGGCAGUUCCACUGGAUGUCUCUCUUCUCCAAAUGCUUCAAUGCAAAGCCCUAAGCAUGAG	0.183
CGAAACAGCAGCAGGUGACGACGGAGAUGAAGUAUUUGUAGAGGCGGAGUCUGAAGGUAUUAGUUCAGAGGCAGGCCUAGAAAUUGAUAGCCAGCAGGAAGAGGAGCCUGUCCAAGCAUC	2.84
GGGGCUGCUGAGAUAUCCUGUGCCCUGGCAGUUAGCCAAGAGGCGGAUAAGUGCCCCACCUUAGAACAGUAUGCCAUGAGAGCGUUUGCCGACGCACUGGAGGUCAUCCCCAUGGCCCUC	0.642
UCAGUGAUUAUUUUUCCAGCUCCGUGUUUCUCUAAGGAAUUAUUUCACACACGGACCAUCUUUAGCAGUUUCCUCAGUGAUGGAAUAUCAUGAAUGUGAGUCAUUAUGUAGCUGUCGUAC	0.572
GCUGGCUUCUUUGGACUCCCUAUAUGAUUGAUGAUGUGAAAACCUAAAUUACUUGCAGCAUAGUAUUACUUCUUUGAUGUUCUCAUUAGCAUAAUGUUAUUUUUGAAAAGGAAAGAUACU	1.68
GACCUGUUGUAGGCAGCUAUCUUACAGACGCAUGAAUGUAAGAGUAGGAAGGGGUGGGUGUCAGGGAUCACUUGGGAUCUUUGACACUUGAAAAAUUACACCUGGCAGCUGCGUUUAAGC	0.271
CUGGGCUGCUCGGGUUAGAUCGUCAGGAAAAGCCUAAAGAUUAGACUGUAAGAAAAGAAAAUAGAAGCCAUGUUUCGAAGACCUGUAUUACAGGUACUUCGUCAGUUUGUAAGACAUGAG	2.23
GUUGGCUUGUCGGAUGAACUGGCUAAACUGGAUGCAUUUGUAGAAGGUGUGGUCAAGAAAGUGGCUCAGUACAUGGCUGAUGUGCUGGAGGACAGCAAAGAUAAAGUUCAGGAGAACUUG	0.178

Series 3 — technique: universal PBM; molecule type: double-stranded DNA, one strand shown; sample: in vitro; tested at: 600 nM; direction: higher = stronger binding
Target: Sal-like protein 4, full length isoform A (SALL4, Homo sapiens, UniProt Q9UJQ4, residues 1-1053)
UniProt Q9UJQ4, sequence (whole entry, looked up): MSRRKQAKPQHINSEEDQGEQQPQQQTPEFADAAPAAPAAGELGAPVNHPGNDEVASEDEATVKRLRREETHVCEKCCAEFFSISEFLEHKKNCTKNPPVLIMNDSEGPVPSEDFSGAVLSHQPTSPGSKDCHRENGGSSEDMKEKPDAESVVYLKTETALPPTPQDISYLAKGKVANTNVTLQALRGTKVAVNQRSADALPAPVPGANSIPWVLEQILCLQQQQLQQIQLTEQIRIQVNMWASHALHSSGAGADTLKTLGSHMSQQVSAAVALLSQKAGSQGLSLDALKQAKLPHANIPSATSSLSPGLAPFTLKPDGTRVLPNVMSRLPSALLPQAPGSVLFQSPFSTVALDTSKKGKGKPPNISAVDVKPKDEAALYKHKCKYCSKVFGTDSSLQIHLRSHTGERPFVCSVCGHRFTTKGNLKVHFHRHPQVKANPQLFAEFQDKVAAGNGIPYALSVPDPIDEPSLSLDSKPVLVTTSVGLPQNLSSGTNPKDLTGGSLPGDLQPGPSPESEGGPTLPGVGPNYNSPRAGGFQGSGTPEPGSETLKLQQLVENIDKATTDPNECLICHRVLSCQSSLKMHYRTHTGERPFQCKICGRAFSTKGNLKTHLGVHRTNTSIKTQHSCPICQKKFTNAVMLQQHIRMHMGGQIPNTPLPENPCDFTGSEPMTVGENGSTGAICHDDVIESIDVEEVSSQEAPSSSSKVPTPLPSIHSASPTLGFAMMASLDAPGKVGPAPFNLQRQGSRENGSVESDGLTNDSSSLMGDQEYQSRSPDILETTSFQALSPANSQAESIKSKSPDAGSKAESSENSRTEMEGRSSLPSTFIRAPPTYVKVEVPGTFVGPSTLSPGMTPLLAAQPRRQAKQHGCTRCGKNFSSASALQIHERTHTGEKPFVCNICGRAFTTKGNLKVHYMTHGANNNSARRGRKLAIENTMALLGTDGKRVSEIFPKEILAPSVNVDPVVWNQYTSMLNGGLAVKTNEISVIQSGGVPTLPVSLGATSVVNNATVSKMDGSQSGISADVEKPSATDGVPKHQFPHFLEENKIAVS
Notes: 8-mer, flanks averaged, mean of replicates
Strand	E-score
ACCCCCCG	-0.291
AACATTCG	-0.0677
CGCGCTAG	-0.174
AGCTAAAA	0.121
AATTTCCC	0.136
ACAGATTG	-0.0369
TATGACAA	0.318
AGAACCGG	-0.208
ACTACGAT	0.126
GCCTAAAA	-0.066
GGGAGGCA	-0.239
CCAGGAAC	-0.303
CGTATGAC	0.182
ATGTCATA	0.342
TATAGTGA	0.322
AGGTTCTC	-0.161
AACTGGGG	-0.283
ACGACAGT	0.0203
CACCTTGA	-0.179
CCTAACTC	-0.247
AAATTCGC	0.144
GTAGGATA	-0.0233
GCCGATTA	0.139
ATATCAGC	0.156
AACTTTCG	0.123

Series 4 — technique: EMSA with sequencing; molecule type: double-stranded DNA, one strand shown; sample: in vitro; tested at: 10 and 20 nM; relative to: negative control set to 0; direction: higher = stronger binding
Target: Hepatocyte nuclear factor 3-alpha (Foxa1, Mus musculus, UniProt P35582, residues 1-468, full length assumed)
Notes: whole designed probe, mean of two concentrations, ends assumed
All sequences stand within: GTGAGCGGTGCCCATTGATGGGGAAC … TTTCACTGGGATCGTGGGGAC
Target sequence (chain): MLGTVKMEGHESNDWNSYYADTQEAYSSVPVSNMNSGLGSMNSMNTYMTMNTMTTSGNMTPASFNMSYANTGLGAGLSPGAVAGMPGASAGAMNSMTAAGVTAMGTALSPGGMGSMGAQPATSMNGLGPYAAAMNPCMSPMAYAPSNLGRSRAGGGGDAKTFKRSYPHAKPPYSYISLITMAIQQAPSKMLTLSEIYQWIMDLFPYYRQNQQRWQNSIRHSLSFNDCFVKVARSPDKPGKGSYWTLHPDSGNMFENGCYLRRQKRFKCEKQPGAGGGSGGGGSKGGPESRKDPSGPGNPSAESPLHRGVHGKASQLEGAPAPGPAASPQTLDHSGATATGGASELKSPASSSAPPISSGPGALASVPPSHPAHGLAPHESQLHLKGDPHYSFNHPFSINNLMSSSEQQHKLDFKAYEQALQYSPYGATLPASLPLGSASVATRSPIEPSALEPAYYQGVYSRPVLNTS
Strand	normalised bound fraction
GTACAAAATTGCACTCATTGCTCTCTTGCTGTTGGCTTATTCTGGATCTCAGATAAAACTTATAAAGAAAACAAGTAGTATGGATTTATGCTTGTTTACTTAGCCAGAGAAACAAAGGCAAATGCATATTCAGAGGTATACTGATAGCGATGTTTCCATGGAAACAAGGATGCTATCATAATATTTATTTCCA	0.477 ratio
GAAGGAAATAATGGAGCCAACCATGCATATAACCTCAGGGAGAACATTCTAGGTAGAGGGAACAGCAAGTGCAAAGGCCCTGAAGTGGGGGTTTGTTTACCTTGTTGCACAATCTGCACACAGGCCAGTACAATTGGAATGGATGGGAAATGTAAAAGAGAGAAGTTGAAAAGGCCAGGTGCAGTGGCTCATG	0.43 ratio
TCCTTCTCTCCAGCTCCACCTGGTCCTGGGAAGAGGGACTGCCACACCGGATGGACTGAGGTCTGAAGCCAGCTCCTGCCACTTGTGCTCTGTGTCATTTAGGCATCTCCCTCTCTGGCTTCCAGTTCCTCCTCTATGAGTAGGTAATGGGGTTACGCTCCATTTCTTGTGGGGAAATGTGAAGCTCGTATGA	-0.0857 ratio
TTCTCTTTTTAACTTTCTGCATTTCATTTGCTCTAGGTTCATGTCTTACATCTAGCTAGTATTTTTTTCACTTCAATCTGCGATTTTAACTCATTGTTTACATAGTATTTCCATCTATTTTTCTATAAGACGTTCTCGTTCTCATCTAATGAACACTTTTATTAGTTAGACTTAACTTATAGTTGCATTTTTA	0.472 ratio
CTGTTCCAGACCCTAGTCTTTCAATCTAATGTTTATACACAAATCTAGATTCAGATATCTATTTTGAATTTCATTTAGGTTTTTGTTTCTAAGTAATCTTCAGAGGATTAGTTTGGGTTTTGTTCACCCATGTCTTTTAAAGTTCTAAAGAACCTTTGTATCTAAGCTCAACTTTATATTTAAGTTCAACTGC	0.0362 ratio

Series 5 — technique: RNA Bind-n-Seq; molecule type: RNA; sample: in vitro; tested at: 365 nM; relative to: no-protein control; direction: higher = stronger binding
Target: RNA binding protein fox-1 homolog 2, RRM domain, GST-SBP tag (RBFOX2, Homo sapiens, UniProt O43251-10, residues 100-194)
Notes: natural RNA segment, single round, ends assumed
All sequences stand within: GGGAGUUCUACAGUCCGACGAUC … UGGAAUUCUCGGGUGCCAA
Target sequence (chain): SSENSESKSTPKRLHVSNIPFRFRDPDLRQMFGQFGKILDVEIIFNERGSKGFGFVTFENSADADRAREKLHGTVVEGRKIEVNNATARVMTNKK
Strand	RBNS enrichment (R)
CUGGGCGGGCUACCUCUGAGAACGGCUGAAAUGGUGCCCAGUCCAUCAGCAGUGAUGGAAUUUGCUGGAGGACUAGGCCAGAGCAAGCCUCACUGCCACUGUGCCUUUGG	0.567
GAUUUCUAAAUGGUUCUGGAUUCCAUGUUUUCUCUAUUCGUUUAGAAGAAGUUGGAGGAUGGUGCUGAAUGCAGUUUUGUUUAUUCCAAGAAAAAAUAUUUAUAAUAAAA	0.545
GAUAUAUACUUUAUAUUGGGUAUGAGAGAUCUGUGUUUGGGUUUUAUAGAUUUUAGCUUUUGACACGUUUGCCUCUUUAAAUUUACUUUUCAUAAAUCCCCUUAUUAGAA	1.88
GUUUUACUUGUUAGGGUCAAGGGUGUCUUGCCCAUUAACAGCUGUAGAUAGACAUUAAAGUAAAGCAGCUGUUUGUUAUUGAUAAUAAAAUACUAAGUAUUAUAAAACUG	0.616
CUUAUAUUGGUGAGCAUGAGGGAGGAGGAAUCAUGGCUACCUUCUCCUGGCCCUGCGUUCUUAAUAUUGGGCUAUGGAGAGAUCCUCCUUUACCCUCUUGAAAUUUCUUA	0.776
AACAGCUGUUUUUUCUACAUUAGAAAUAAGAUGCCACACAAGGAACUACAUUCCAGAUUUAAAGAAAUGAAAGGAUACCAUUAGUGUGUAUAACAGAUUAUUGUUCAUAC	0.316
AGCUCACCUGGGGCCUCCCUGCUCACACCAAUGCAGGUUUCAAUAAAGACUCAGCCAUGCUUCCGUGACUACUGUGUUGAAUUUUAGCCGCCUGCUCCUAAAGGGAGUGG	0.281
ACAGAGCUACCCACUGCAGCGGCCUGACUGUGCAGCACUCAGCUCUUUGGCUCUCUCUGAAAUGCCCGUCUCAUCCUGUCUUUUUCGAGCAUGGCUCACAGGCCUUGUGU	0.504

A few entries again (series 3):
Strand	E-score
ATATCAGC	0.156
ACGACAGT	0.0203
CCAGGAAC	-0.303
AAATTCGC	0.144
